{"data": "Experimental data pooled from the literature", "note": "Each line is one published result; not all experiments were run side by side. “And” joins repeats or separate records; there may be more than shown. Numbers after ± are the reported error."}
{"SMILES": "CC[C@H](C)[C@H](NC(=O)[C@H](C)NC(=O)[C@H](CCCCN)NC(=O)[C@H](CC(C)C)NC(=O)[C@@H](N)Cc1ccccc1)C(=O)N[C@@H](CCCCN)C(=O)N[C@@H](CCCCN)C(=O)N[C@@H](Cc1ccccc1)C(=O)NCC(=O)N[C@@H](CCCCN)C(=O)N[C@@H](CCC(=O)O)C(=O)N[C@@H](Cc1ccccc1)C(=O)N[C@@H](CCCCN)C(=O)N[C@@H](CCCCN)C(=O)N[C@H](C(=O)NCC(=O)N[C@@H](C)C(=O)N[C@@H](CCCCN)C(=O)N[C@@H](CC(C)C)C(=O)N[C@@H](CCCCN)C(=O)O)[C@@H](C)CC", "system": "human red blood cells", "conditions": "32 mg/L, 1 h, mean of replicates", "measurement": "hemolysis", "value": "0.511%"}
{"SMILES": "COC(=O)[C@H]1[C@@H](c2ccc(Cl)c(Cl)c2)C[C@@H]2CC[C@H]1N2CCCCCc1ccc2cc3ccccc3cc2c1", "test": "fluorometric titration", "conditions": "1 µM, 10% DMSO", "measurement": "pKa", "value": 6.5}
{"SMILES": "CC[C@H](C)[C@H](NC(=O)CNC(=O)[C@H](Cc1c[nH]cn1)NC(=O)[C@H](CC(C)C)NC(=O)CNC(=O)[C@H](CC(C)C)NC(=O)[C@H](CCCCN)NC(=O)[C@H](Cc1ccccc1)NC(=O)[C@H](CC(C)C)NC(=O)[C@H](CCCCN)NC(=O)CNC(=O)[C@H](Cc1c[nH]c2ccccc12)NC(=O)[C@H](Cc1ccccc1)NC(=O)CN)C(=O)NCC(=O)N[C@@H](CC(C)C)C(=O)N[C@@H](CC(C)C)C(=O)N[C@@H](Cc1c[nH]cn1)C(=O)N[C@@H](CC(C)C)C(=O)N[C@@H](Cc1c[nH]cn1)C(=O)N[C@@H](CC(C)C)C(N)=O", "system": "zebrafish embryos 4 hpf, E3 medium", "conditions": "24 h", "measurement": "chronic toxic concentration", "value": "1 µM"}
{"SMILES": "COc1cnc2cccc(N3CCc4c(cc(Cn5ccnc5)cc4-c4cn(C)nc4C(F)(F)F)C3=O)c2c1", "system": "BALB/c nude mice, MV4-11 xenograft", "conditions": "intraperitoneal, 100 mg/kg, day 17", "measurement": "body weight", "value": "20.6 g and 23.2 g and 22.3 g and 22.1 g and 25.1 g"}
{"SMILES": "CC(=O)c1c(C)c2cnc(Nc3ccc(N4CCNCC4)cn3)nc2n(C2CCCC2)c1=O", "system": "C57BL/6 mice, blood", "conditions": "25 mg/kg, P25, dosed P10 to P24", "measurement": "ALT activity", "value": "39.7 ± 4 U/liter"}
{"SMILES": "N#[11C]c1ccc(-c2csc(NN=C3CCCC3)n2)cc1", "system": "C57BL/6 mice, male, bladder", "conditions": "intravenous, 3 MBq, 1 min", "measurement": "radioactivity uptake", "value": "1.85 ± 0.6 %ID/g"}
{"SMILES": "CCCCCCCCCCCCCC(=O)N[C@H](CCN)C(=O)N[C@@H]1C(=O)N[C@@H](CCN)C(=O)N[C@@H](CC(C)C)C(=O)N[C@@H](CCN)C(=O)N[C@H](Cc2ccccc2)C(=O)N[C@@H](CC(C)C)C(=O)N[C@@H](CCN)C(=O)N[C@H](CCN)C(=O)N[C@@H](C(C)C)C(=O)N[C@@H](CC(=O)O)C(=O)O[C@@H]1C", "system": "rat, plasma", "conditions": "subcutaneous, 10 mg/kg", "measurement": "AUC(0-inf)", "value": "115 µg·h/mL"}
{"SMILES": "CCCCCCCCCCCCCCCC(=O)N[C@@H](CCC(=O)NCCOCCOCCC(=O)NCCOCCOCCC(=O)NCCCC[C@H](NC(=O)[C@H](CC(=O)O)NC(=O)[C@H](CC(C)C)NC(=O)[C@H](Cc1ccc(O)cc1)NC(=O)[C@H](CCCCN)NC(=O)[C@H](CO)NC(=O)[C@H](Cc1ccc(O)cc1)NC(=O)[C@H](CC(=O)O)NC(=O)[C@H](CO)NC(=O)[C@@H](NC(=O)[C@H](Cc1ccccc1)NC(=O)[C@@H](NC(=O)CNC(=O)[C@H](CCC(N)=O)NC(=O)[C@@H](CO)NC(=O)[C@@H](N)Cc1c[nH]cn1)[C@@H](C)O)[C@@H](C)O)C(=O)N[C@@H](CCCNC(=N)N)C(=O)N[C@@H](CCCNC(=N)N)C(=O)N[C@@H](C)C(=O)N[C@@H](CCC(N)=O)C(=O)N[C@@H](CC(=O)O)C(=O)N[C@@H](Cc1ccccc1)C(=O)N[C@H](C(=O)N[C@@H](CCC(N)=O)C(=O)N[C@@H](Cc1c[nH]c2ccccc12)C(=O)N[C@@H](CC(C)C)C(=O)N[C@@H](CC(C)C)C(=O)N[C@@H](CC(N)=O)C(=O)N[C@H](C(=O)NCC(=O)NCC(=O)N1CCC[C@H]1C(=O)N[C@@H](CO)C(=O)N[C@@H](CO)C(=O)NCC(=O)N[C@@H](C)C(=O)N1CCC[C@H]1C(=O)N1CCC[C@H]1C(=O)N1CCC[C@H]1C(=O)N[C@@H](CO)C(N)=O)[C@@H](C)O)C(C)C)C(=O)O", "system": "Sprague-Dawley rat, female", "conditions": "subcutaneous, 100 µg/kg once daily, 14 days", "measurement": "total bilirubin", "value": "1.3 ± 0.7 µmol/L"}
{"SMILES": "CN[C@H](CC(C)C)C(=O)N[C@H]1C(=O)N[C@@H](CC(N)=O)C(=O)N[C@H]2C(=N)N[C@H]3C(=O)N[C@H](C(=O)N[C@H](C(=O)NCCCNC(=N)N)c4cc(O)cc(O)c4-c4cc3ccc4O)[C@H](O)c3ccc(c(Cl)c3)Oc3cc2cc(c3O[C@@H]2O[C@H](CO)[C@@H](O)[C@H](O)[C@H]2O[C@H]2C[C@](C)(NCc3ccc(-c4ccc(Cl)cc4)cc3)[C@H](O)[C@H](C)O2)Oc2ccc(cc2Cl)[C@H]1O", "system": "mouse", "measurement": "MTD", "value": "≥ 25 mg/kg"}
{"SMILES": "O=C1NC2(CC2)COc2ncc(F)cc2[C@H]2COCCN2c2ccn3ncc1c3n2", "system": "Sprague-Dawley rat, male, blood", "conditions": "oral, 2.5 mg/kg/day, 4 weeks, end of recovery, subacute toxicity", "measurement": "neutrophil percentage", "value": "11.3 ± 3%"}
{"SMILES": "CC[C@H](C)[C@H](NC(=O)[C@H](CCCCN)NC(=O)CNC(=O)[C@H](CC(C)C)NC(=O)[C@H](Cc1ccccc1)NC(=O)[C@H](CCCCN)NC(=O)[C@H](CO)NC(=O)[C@H](Cc1ccccc1)NC(=O)[C@H](Cc1c[nH]c2ccccc12)NC(=O)[C@H](CCC(N)=O)NC(=O)[C@@H](NC(=O)[C@H](Cc1ccccc1)NC(=O)CCCCCNC(=O)CN1CCN(CC(=O)O)CCN(CC(=O)O)CCN(CC(=O)O)CC1)C(C)C)C(=O)N[C@@H](CCC(=O)O)C(=O)N1CCC[C@H]1C(=O)N[C@@H](CC(=O)O)C(=O)N[C@H](C(=O)N[C@@H](CO)C(=O)N[C@@H](CCC(N)=O)C(=O)N[C@H](C(=O)N[C@@H](CCC(N)=O)C(=O)N[C@@H](CC(=O)O)C(=O)N1CCC[C@H]1C(=O)N[C@@H](CC(N)=O)C(=O)N[C@@H](CC(=O)O)C(=O)N[C@@H](CCC(N)=O)C(=O)N[C@@H](Cc1ccc(O)cc1)C(=O)N[C@@H](CCC(=O)O)C(=O)N1CCC[C@H]1C(=O)N[C@@H](Cc1ccccc1)C(=O)O)C(C)C)C(C)C [copper-64 labelled]", "test": "dynamic PET", "system": "mouse both sexes, CT26 tumour, untreated, tumour", "conditions": "intravenous, 100 µCi/mouse, 990 s", "measurement": "SUVmean", "value": "1.06 SUV"}
{"SMILES": "CSCC[C@H](NC(=O)CNC(=O)[C@H](CCCCN)NC(=O)[C@H](CC(C)C)NC(=O)[C@@H]1CCCN1C(=O)[C@H](CO)NC(=O)[C@H](Cc1c[nH]cn1)NC(=O)[C@H](Cc1c[nH]c2ccccc12)NC(=O)[C@H](CCCNC(=N)N)NC(=O)[C@H](CC(C)C)NC(=O)[C@H](CCCNC(=N)N)NC(=O)[C@H](Cc1c[nH]c2ccccc12)NC(=O)[C@H](CS)NC(=O)CCCCCNC(=O)CN1CCN(CC(=O)O)CCN(CC(=O)O)CCN(CC(=O)O)CC1)C(=O)O [copper-64 labelled]", "system": "BALB/c nude mouse, Huh-7 tumour, tumour and blood", "conditions": "intravenous, 1.85 MBq, 2 h, ex vivo biodistribution", "how to read": "baseline: tumour over blood", "measurement": "tumour-to-blood ratio", "value": 2.87}
{"note": "Repeated from above:"}
{"SMILES": "CSCC[C@H](NC(=O)CNC(=O)[C@H](CCCCN)NC(=O)[C@H](CC(C)C)NC(=O)[C@@H]1CCCN1C(=O)[C@H](CO)NC(=O)[C@H](Cc1c[nH]cn1)NC(=O)[C@H](Cc1c[nH]c2ccccc12)NC(=O)[C@H](CCCNC(=N)N)NC(=O)[C@H](CC(C)C)NC(=O)[C@H](CCCNC(=N)N)NC(=O)[C@H](Cc1c[nH]c2ccccc12)NC(=O)[C@H](CS)NC(=O)CCCCCNC(=O)CN1CCN(CC(=O)O)CCN(CC(=O)O)CCN(CC(=O)O)CC1)C(=O)O [copper-64 labelled]", "system": "BALB/c nude mouse, Huh-7 tumour, tumour and blood", "conditions": "intravenous, 1.85 MBq, 2 h, ex vivo biodistribution", "how to read": "baseline: tumour over blood", "measurement": "tumour-to-blood ratio", "value": 2.87}
{"SMILES": "CC(=O)c1c(C)c2cnc(Nc3ccc(N4CCNCC4)cn3)nc2n(C2CCCC2)c1=O", "system": "C57BL/6 mice, blood", "conditions": "25 mg/kg, P25, dosed P10 to P24", "measurement": "ALT activity", "value": "39.7 ± 4 U/liter"}
